Results of several laboratories.
“And” joins repeats or separate records; there may be more than shown. Numbers after ± are the reported error.
Urease: Urease (Canavalia ensiformis, UniProt P07374)
UniProt P07374, sequence (whole entry, looked up): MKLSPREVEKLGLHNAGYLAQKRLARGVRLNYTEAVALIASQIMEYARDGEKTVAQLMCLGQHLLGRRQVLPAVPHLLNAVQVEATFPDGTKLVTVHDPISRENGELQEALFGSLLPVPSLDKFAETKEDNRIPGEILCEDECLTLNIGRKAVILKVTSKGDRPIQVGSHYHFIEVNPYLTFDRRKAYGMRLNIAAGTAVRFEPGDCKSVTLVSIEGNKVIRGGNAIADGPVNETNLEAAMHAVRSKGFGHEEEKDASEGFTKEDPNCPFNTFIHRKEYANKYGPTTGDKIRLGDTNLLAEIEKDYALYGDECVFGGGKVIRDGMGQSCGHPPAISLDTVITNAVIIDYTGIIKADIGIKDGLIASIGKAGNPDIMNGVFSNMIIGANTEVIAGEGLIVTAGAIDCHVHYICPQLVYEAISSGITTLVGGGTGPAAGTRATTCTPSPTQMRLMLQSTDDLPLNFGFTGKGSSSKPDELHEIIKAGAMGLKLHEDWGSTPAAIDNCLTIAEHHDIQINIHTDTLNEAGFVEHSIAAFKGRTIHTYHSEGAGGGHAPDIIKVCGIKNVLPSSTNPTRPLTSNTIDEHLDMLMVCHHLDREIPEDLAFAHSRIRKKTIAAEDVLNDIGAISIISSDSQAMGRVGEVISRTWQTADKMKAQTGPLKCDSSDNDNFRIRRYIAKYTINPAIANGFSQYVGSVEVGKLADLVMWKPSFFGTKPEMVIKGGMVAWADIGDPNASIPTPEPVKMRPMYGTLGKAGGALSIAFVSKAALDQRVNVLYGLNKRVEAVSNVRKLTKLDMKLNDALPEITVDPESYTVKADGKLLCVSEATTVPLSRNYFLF
KCNK18: Potassium channel subfamily K member 18 (KCNK18, Homo sapiens, UniProt Q7Z418)
Kir1 channel protein: Kir1 channel protein (Aedes aegypti, UniProt L0EQS9)
KCNJ13 M125R: Inward rectifier potassium channel 13 (KCNJ13, Homo sapiens, UniProt O60928, M125R)
UniProt O60928, sequence (whole entry, unmodified, looked up): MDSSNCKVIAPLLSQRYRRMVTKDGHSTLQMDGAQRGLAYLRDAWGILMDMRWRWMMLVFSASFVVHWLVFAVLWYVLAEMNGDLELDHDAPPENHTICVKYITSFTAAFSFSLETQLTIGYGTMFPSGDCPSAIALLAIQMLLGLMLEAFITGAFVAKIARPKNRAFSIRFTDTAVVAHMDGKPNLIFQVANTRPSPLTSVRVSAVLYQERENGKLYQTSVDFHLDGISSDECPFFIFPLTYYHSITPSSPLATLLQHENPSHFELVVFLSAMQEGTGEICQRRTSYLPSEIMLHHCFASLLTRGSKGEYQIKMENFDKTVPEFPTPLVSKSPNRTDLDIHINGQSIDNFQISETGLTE
CACNA1H: Voltage-dependent T-type calcium channel subunit alpha-1H (CACNA1H, Homo sapiens, UniProt O95180)
Cyp2b1: Cytochrome P450 2B1 (Cyp2b1, Rattus norvegicus, UniProt P00176)
UniProt P00176, sequence (whole entry, looked up): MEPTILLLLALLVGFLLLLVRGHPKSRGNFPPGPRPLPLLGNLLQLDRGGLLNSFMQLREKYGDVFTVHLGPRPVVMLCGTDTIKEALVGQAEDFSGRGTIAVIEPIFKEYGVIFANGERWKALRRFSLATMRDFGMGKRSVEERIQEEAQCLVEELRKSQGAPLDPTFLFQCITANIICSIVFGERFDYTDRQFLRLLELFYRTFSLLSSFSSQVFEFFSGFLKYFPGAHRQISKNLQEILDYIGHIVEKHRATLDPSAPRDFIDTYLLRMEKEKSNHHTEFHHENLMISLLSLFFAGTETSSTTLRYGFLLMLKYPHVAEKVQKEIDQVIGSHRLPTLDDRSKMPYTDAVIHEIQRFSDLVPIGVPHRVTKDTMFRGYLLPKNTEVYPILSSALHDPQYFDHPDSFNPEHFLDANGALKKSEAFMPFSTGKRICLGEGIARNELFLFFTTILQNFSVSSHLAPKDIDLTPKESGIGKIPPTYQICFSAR
MAL12: Alpha-glucosidase MAL12 (MAL12, Saccharomyces cerevisiae S288c, UniProt P53341)
UniProt P53341, sequence (whole entry, looked up): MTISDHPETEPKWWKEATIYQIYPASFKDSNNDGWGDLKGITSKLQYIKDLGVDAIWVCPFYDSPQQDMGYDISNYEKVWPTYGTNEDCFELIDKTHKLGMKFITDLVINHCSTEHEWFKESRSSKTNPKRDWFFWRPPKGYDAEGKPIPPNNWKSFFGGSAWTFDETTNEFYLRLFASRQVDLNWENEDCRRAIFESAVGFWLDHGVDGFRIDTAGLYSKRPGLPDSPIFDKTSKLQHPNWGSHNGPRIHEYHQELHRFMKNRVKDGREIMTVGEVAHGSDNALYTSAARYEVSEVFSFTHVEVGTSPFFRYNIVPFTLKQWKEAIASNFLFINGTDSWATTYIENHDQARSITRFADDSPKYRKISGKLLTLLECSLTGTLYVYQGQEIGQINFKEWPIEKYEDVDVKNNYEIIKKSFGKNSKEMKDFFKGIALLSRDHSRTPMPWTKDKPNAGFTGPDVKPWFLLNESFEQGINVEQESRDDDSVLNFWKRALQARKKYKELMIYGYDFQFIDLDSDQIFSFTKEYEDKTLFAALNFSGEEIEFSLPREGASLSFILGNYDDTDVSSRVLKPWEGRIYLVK
Inward rectifier potassium channel 4: Inward rectifier potassium channel 4 (Homo sapiens, UniProt P48050)
UniProt P48050, sequence (whole entry, looked up): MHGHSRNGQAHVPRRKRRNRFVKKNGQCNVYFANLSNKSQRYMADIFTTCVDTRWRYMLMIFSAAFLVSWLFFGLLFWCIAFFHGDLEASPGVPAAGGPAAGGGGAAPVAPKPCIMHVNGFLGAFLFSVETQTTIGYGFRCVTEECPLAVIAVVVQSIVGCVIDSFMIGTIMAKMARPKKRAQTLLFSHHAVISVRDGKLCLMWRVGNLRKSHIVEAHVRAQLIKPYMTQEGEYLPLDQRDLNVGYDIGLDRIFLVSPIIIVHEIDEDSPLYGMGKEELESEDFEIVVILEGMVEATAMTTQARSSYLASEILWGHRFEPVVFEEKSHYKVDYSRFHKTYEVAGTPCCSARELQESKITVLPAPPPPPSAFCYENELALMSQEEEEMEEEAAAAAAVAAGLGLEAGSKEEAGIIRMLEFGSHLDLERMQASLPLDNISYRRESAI
STS: Steryl-sulfatase (STS, Homo sapiens, UniProt P08842)
UniProt P08842, sequence (whole entry, looked up): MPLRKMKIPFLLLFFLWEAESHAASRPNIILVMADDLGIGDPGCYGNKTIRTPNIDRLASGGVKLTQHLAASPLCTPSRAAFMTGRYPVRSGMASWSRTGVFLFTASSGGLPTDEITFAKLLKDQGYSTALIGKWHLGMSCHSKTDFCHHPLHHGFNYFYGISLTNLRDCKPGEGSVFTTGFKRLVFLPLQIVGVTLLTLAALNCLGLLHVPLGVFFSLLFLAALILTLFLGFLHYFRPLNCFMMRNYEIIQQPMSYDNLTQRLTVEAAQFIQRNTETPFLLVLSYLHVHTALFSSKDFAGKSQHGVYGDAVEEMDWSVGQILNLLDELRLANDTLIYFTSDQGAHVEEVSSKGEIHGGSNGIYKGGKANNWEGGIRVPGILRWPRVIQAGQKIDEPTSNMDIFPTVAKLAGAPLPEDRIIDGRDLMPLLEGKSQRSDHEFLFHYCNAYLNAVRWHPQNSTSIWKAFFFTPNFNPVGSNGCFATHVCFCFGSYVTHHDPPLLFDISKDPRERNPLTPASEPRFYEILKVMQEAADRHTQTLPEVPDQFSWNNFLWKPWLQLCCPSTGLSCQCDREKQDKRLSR
UniProt Q96S37, sequence (whole entry, looked up): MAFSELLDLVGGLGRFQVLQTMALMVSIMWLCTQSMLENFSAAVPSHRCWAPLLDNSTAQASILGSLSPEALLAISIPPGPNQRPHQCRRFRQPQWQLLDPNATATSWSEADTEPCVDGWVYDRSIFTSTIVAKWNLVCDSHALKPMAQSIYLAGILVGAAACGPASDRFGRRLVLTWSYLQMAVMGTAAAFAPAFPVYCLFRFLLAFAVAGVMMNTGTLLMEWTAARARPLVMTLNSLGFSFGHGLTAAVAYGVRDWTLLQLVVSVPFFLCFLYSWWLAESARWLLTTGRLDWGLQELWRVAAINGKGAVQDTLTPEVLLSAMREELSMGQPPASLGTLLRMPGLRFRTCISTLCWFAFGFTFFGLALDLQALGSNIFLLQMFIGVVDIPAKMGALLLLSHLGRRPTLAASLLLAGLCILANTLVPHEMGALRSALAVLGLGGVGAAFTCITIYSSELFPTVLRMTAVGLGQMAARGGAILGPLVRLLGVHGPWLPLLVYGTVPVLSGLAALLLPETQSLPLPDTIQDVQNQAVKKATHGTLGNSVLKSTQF
UniProt O94956, sequence (whole entry, looked up): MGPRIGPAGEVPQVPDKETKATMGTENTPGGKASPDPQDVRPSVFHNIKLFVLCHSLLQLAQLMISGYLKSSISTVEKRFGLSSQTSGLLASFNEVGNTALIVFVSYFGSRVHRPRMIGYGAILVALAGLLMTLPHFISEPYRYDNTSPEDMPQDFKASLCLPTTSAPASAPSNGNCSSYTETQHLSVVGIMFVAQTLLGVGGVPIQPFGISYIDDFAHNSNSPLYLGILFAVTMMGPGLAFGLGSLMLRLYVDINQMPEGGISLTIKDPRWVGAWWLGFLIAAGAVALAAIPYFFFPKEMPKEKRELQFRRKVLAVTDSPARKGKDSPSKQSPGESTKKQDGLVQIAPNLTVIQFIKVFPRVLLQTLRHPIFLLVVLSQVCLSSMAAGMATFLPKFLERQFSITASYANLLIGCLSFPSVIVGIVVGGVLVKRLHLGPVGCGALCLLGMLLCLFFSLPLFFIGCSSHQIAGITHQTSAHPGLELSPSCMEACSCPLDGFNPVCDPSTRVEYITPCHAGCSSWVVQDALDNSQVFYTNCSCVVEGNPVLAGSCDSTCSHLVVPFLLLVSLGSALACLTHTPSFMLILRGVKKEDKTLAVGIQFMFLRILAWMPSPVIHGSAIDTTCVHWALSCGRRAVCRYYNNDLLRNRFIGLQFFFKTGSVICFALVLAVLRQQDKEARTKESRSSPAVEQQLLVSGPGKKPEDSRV
UniProt Q8WXS5, sequence (whole entry, looked up): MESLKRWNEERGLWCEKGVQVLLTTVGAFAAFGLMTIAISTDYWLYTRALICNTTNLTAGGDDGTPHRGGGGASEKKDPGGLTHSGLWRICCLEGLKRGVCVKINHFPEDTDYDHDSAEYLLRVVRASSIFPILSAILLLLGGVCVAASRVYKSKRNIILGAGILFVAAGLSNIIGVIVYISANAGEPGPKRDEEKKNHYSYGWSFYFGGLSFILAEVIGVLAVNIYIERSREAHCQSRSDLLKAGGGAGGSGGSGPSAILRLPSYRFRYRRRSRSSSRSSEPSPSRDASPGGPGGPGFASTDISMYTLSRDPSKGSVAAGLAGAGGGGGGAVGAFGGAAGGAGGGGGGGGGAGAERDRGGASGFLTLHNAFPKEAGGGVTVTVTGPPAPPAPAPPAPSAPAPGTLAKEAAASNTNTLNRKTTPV

`Cc1cc(OCC(=O)N/N=C/c2cccc(OCc3cn(Cc4ccc(Br)cc4)nn3)c2)c2c(C)cc(=O)oc2c1` has an IC50 of 10.1 ± 0.28 µM (Urease; enzyme activity, inhibitor).
The IC50 of `Clc1ccc(C(c2ccc(Cl)cc2)n2cc[n+](CC(OCc3ccc(Cl)cc3Cl)c3ccc(Cl)cc3Cl)c2)cc1` (centres unmarked) is reported as 27.9 µM (KCNK18; ion flux, inhibitor).
`CC(C)C[C@H](NC(=O)[C@H](CC(N)=O)NC(=O)[C@H](CC(C)C)NC(=O)[C@@H](NC(=O)[C@@H](NC(=O)[C@@H]1CCCN1C(=O)[C@H](CCCNC(=N)N)NC(=O)[C@H](CCCCN)NC(=O)[C@@H]1CCCN1C(=O)[C@H](CCCNC(=N)N)NC(=O)[C@H](CCCNC(=N)N)NC(=O)[C@H](CCCNC(=N)N)NC(=O)[C@H](CCCNC(=N)N)NC(=O)[C@H](CCC(N)=O)NC(=O)[C@H](CCCNC(=N)N)NC(=O)[C@H](CCCNC(=N)N)NC(=O)[C@H](CCCCN)NC(=O)[C@H](CCCCN)NC(=O)[C@H](CCCNC(=N)N)NC(=O)CNC(=O)[C@@H](N)Cc1ccc(O)cc1)[C@@H](C)O)[C@@H](C)O)C(=O)N[C@@H](Cc1ccccc1)C(N)=O` has an IC50 of 0.022 ± 0.01 µM (Mitogen-activated protein kinase 8 (MAPK8, Homo sapiens, UniProt P45983); kinase activity, inhibitor; 60 min, pH 7.4, 30 °C, with: 1 µM Sab substrate, 1 µM ATP).
For `Cc1cccc(Cc2nn(C(C)(C)C)c3ncnc(N)c23)c1`, the IC50 was 6.1 µM (Ephrin type-B receptor 1 (EPHB1, Homo sapiens, UniProt P54762); phosphorylation in cells, inhibitor, western blot).
`[Cu+2]` has an IC50 of 200 µM (Transient receptor potential cation channel subfamily V member 1 (Trpv1, Rattus norvegicus, UniProt O35433); transporter uptake, inhibitor, radiometric).
For `CC(C)(C)n1nc(-c2ccc3sc(C4CCCC4)nc3c2)c2c(N)ncnc21`, the IC50 was 0.081 µM (Receptor-interacting serine/threonine-protein kinase 3 (RIPK3, Homo sapiens, UniProt Q9Y572); enzyme activity, inhibitor, ADP detection).
`Cc1cc(CNc2cc(N3CCN(S(=O)(=O)c4ccc(F)cc4)CC3)ccc2[N+](=O)[O-])no1` gave an IC50 of 0.736 µM (Kir1 channel protein; ion flux, inhibitor, fluorescence).
`N=c1n(Cc2ccccc2)c2ccccc2n1CC(O)COc1ccc(Cl)cc1` (centres unmarked) gave an IC50 of 5.17 µM (KCNJ13 M125R; ion flux, inhibitor).
`COc1cccc2c1C(=O)c1c(O)c3c(c(O)c1C2=O)C[C@@](O)(C(=O)CO)C[C@@H]3O[C@H]1C[C@H](N)[C@H](O)[C@H](C)O1` gave an IC50 of 31.5 ± 1.5 µM (DNA; DNA binding, methyl green displacement).
`COC(=O)C1=C(C)NC(C)=C([N+](=O)[O-])[C@H]1c1ccccc1C(F)(F)F` gave an IC50 of 7.2 ± 0.7 µM (CACNA1H; calcium current, blocker, automated patch clamp; holding potential -90 mV; last pulse of train, with: 1 Hz pulse train).
`CCCCc1nc2cc(/C=C/C(=O)NO)ccc2n1CCN(CC)CC` has an IC50 of 0.69 µM (HDAC (Lucilia cuprina egg nuclear extract); enzyme activity, inhibitor, fluorometric).
For `O=c1cc(-c2ccc(O)cc2)oc2ccccc12`, the IC50 was over 50 µM (Cyp2b1; enzyme activity, inhibitor; supersomes; with: pentoxyresorufin 5 µM).
With `N=c1c2ncn3c2ncn1[C@@H]1O[C@H](COP(=O)(O)OP(=O)(O)OC[C@H]2O[C@@H]3[C@H](O)[C@@H]2O)[C@@H](O)[C@H]1O` the IC50 was over 1500 µM (NAD(+) hydrolase SARM1 (SARM1, Homo sapiens, UniProt Q6SZW1); enzyme activity, inhibitor, fluorescence; with preincubation).
`COc1cc(C2C(C#N)=C(N)Oc3c2c(=O)[nH]c2ccccc32)ccc1OCc1cn(Cc2ccc(Br)cc2)nn1` (centres unmarked) has an IC50 of 14 ± 0.7 µM (MAL12; enzyme activity).
For `Fc1ccccc1NC(=S)N1CCc2ccccc2C1`, the IC50 was 24.5 µM (Urease; enzyme activity, inhibitor, absorbance).
With `[Cl-].[Cl-].[Zn+2]` the IC50 was 3.8 µM (Voltage-gated hydrogen channel 1 (HVCN1, Homo sapiens, UniProt Q96D96); proton current, inhibitor, whole-cell voltage clamp; human cells; pH 6.5, test pulse 100 mV).
`Cn1c(=N)n(CC(O)COc2ccc(C(F)(F)F)cc2)c2ccccc21` (centres unmarked) has an IC50 of 4.9 µM (Inward rectifier potassium channel 4; ion flux, inhibitor, fluorescence).
With `C[C@]12CC[C@@H]3c4cc(C(F)F)c(OS(N)(=O)=O)cc4CC[C@H]3[C@@H]1CCC2=O` the IC50 was 5.5e-05 µM (STS; inhibitor; JEG-3).
`N=C(N)SCCc1ccc(OCc2ccc([N+](=O)[O-])cc2)cc1` has an IC50 of 2.9 µM (Sodium/calcium exchanger 1, isoform NCX1.3 (SLC8A1, Homo sapiens, UniProt P32418); forward-mode exchange current, inhibitor, inside-out patch clamp; tsA201; β-cell splice variant).
The IC50 of `Cl.Cl.Cl.Cl.Cl.Cl.N.N.N.N.N.N.N.N.N.N.N.N.N.N.[O-2].[O-2].[Ru+3].[Ru+3].[Ru+4]` is reported as over 100 µM (Kcnk2 (Mus musculus, UniProt P97438); ion current, inhibitor, two-electrode voltage clamp; oocytes).
With `C#CCOc1ccc2c(c1)OC(c1ccccc1)CC2=O` (centres unmarked) the IC50 was over 10 µM (Cyp2b1; enzyme activity, inhibitor; supersomes; with: pentoxyresorufin 5 µM).
For `COc1ccccc1OCC(O)Cn1c(=N)n(Cc2ccccc2)c2ccccc21` (centres unmarked), the IC50 was 3.6 µM (Inward rectifier potassium channel 4; ion flux, inhibitor, fluorescence).
For `O=C(O)c1ccc(C=C2SC(=S)N(c3cccc(C(F)(F)F)c3)C2=O)cc1`, the IC50 was 5.33 µM (volume-regulated anion channel subunit (Cricetulus griseus, UniProt G3IGZ4); volume-sensitive chloride current, inhibitor, whole-cell patch clamp; PS120 (hamster, CFTR-negative); with: hypotonic stimulus).
The IC50 of `Clc1cccc(-c2nnnn2Cc2cccnc2)c1Cl` is reported as about 0.3 µM (P2X purinoceptor 7 (P2rx7, Rattus norvegicus, UniProt Q64663); ion current, antagonist, whole-cell patch clamp; HEK293; with: BzATP 100 µM).
For `C[C@@H](CNCc1ccccc1)N1C[C@H](CCCNC(=N)N)N(CCc2cccc(F)c2)C1=S`, the IC50 was over 10 µM (Neuropeptide Y receptor type 1 (NPY1R, Homo sapiens, UniProt P25929); receptor activation, antagonist, FLIPR).
`N#Cc1ccc([C@H](Cc2ccc(OS(N)(=O)=O)c(Br)c2)n2cncn2)cc1` gave an IC50 of 0.28 ± 0.02 µM (STS; enzyme activity, inhibitor).
For `COc1cccc(OCC(O)Cn2c(=N)n(Cc3ccccc3)c3ccccc32)c1` (centres unmarked), the IC50 was 3.13 µM (Inward rectifier potassium channel 4; ion flux, inhibitor, fluorescence).
The IC50 of `NC(N)=S` is reported as 22.4 µM (Urease; enzyme activity, inhibitor).
`Cc1ncc(CNc2cc(N3CCN(S(=O)(=O)c4ccc(F)cc4)CC3)ccc2[N+](=O)[O-])s1` has an IC50 of 0.82 µM (Kir1 channel protein; ion flux, inhibitor, fluorescence).
`COCC(=O)O[C@]1(CCN(C)CCCc2nc3ccccc3[nH]2)CCc2cc(F)ccc2[C@@H]1C(C)C` gave an IC50 of 2.48 µM (KCNK18; ion flux, inhibitor).
The IC50 of `Cc1ccc(Cn2cc(COc3ccc(/C=N/NC(=O)COc4cc(C)cc5oc(=O)cc(C)c45)cc3)nn2)cc1` is reported as 3.58 ± 0.91 µM (Urease; enzyme activity, inhibitor).
The IC50 of `Cc1ccc(OCC(O)Cn2c(=N)n(Cc3ccccc3)c3ccccc32)cc1` (centres unmarked) is reported as 4.15 µM (Inward rectifier potassium channel 4; ion flux, inhibitor, fluorescence).
`Nc1ccccc1NC(=O)c1ccc(CNC(=O)OCc2cccnc2)cc1` gave an IC50 of 15 µM (HDAC (Lucilia cuprina egg nuclear extract); enzyme activity, inhibitor, fluorometric).
`CC12CC3CC(C)(C1)CC(N)(C3)C2` gave an IC50 of 48 ± 3 µM (Gria2/CACNG8 (Rattus norvegicus, UniProt P19491+Q8WXS5); ion current, inhibitor, whole-cell patch clamp; HEK293; GluA2(Q) with gamma-8, -60 mV, with: glutamate 10 mM).
`S=C(Nc1cccc(Cl)c1)N1CCc2ccccc2C1` gave an IC50 of 31.2 µM (Urease; enzyme activity, inhibitor, absorbance).
The IC50 of `Oc1cc(O)c2c(c1)O[C@H](c1ccc(O)c(O)c1)[C@H](O)[C@H]2c1c(O)cc(O)c2c1O[C@H](c1ccc(O)c(O)c1)[C@H](O)C2` is reported as 8.5 ± 1.5 µM (alpha-glucosidase (Bacillus stearothermophilus); inhibitor; 20 min, pH 6.8, 60 °C, with: pNPG substrate).
`N=c1n(Cc2ccc(Cl)cc2)c2ccccc2n1CC(O)COc1ccc(Cl)cc1` (centres unmarked) has an IC50 of 19.5 µM (KCNJ13 M125R; ion flux, inhibitor).
With `NC(=O)N1c2ccccc2C[C@H](O)c2ccccc21` the IC50 was 0.4 µM (CACNA1H; calcium current, inhibitor, whole-cell patch clamp; HEK293; high-affinity component, with: holding -80 mV, step to -25 mV).
`CCCc1nc2ccc(C)nc2n1-c1ccc2[nH]c(=O)sc2c1` gave an IC50 of 0.0045 µM (GRIA1/CACNG8 (Homo sapiens, UniProt P42261+Q8WXS5); calcium influx, antagonist, FLIPR; HEK293 expressing GluA1o; with: glutamate 100 µM).
With `N#Cc1ccc(OCC(O)Cn2c(=N)n(Cc3ccccc3)c3ccccc32)cc1` (centres unmarked) the IC50 was 19.7 µM (KCNJ13 M125R; ion flux, inhibitor).
The IC50 of `COc1ccc(NC(=S)N2CCc3ccccc3C2)cc1` is reported as 15.5 µM (Urease; enzyme activity, inhibitor, absorbance).
The IC50 of `CCn1c(=O)/c(=C2\Sc3cc(Cl)ccc3N2C)s/c1=C\c1scc[n+]1Cc1ccccc1` is reported as 1.2 ± 0.1 µM (Heat shock 70 kDa protein 1A, with Bag2 (HSPA1A, Homo sapiens, UniProt P0DMV8); protein-protein interaction, inhibitor, flow cytometry protein interaction; with: labeled Bag2 50 nM).
The IC50 of `O=C(OC[C@H]1O[C@@H](OC(=O)c2cc(O)c(O)c(O)c2)[C@H](OC(=O)c2cc(O)c(O)c(O)c2)[C@@H](OC(=O)c2cc(O)c(O)c(O)c2)[C@@H]1OC(=O)c1cc(O)c(O)c(O)c1)c1cc(O)c(O)c(O)c1` is reported as 6.9 µM (DNA oxidative demethylase ALKBH2 (ALKBH2, Homo sapiens, UniProt Q6NS38); 1-methyladenine repair, inhibitor, HPLC; 1 h, 37 °C, with: ssDNA 16mer 5 µM).
The IC50 of `C[C@@H]1O[C@H](CNS(=O)(=O)c2ccn(C)n2)[C@@H](O)[C@H](O)[C@@H]1O` is reported as 0.73 to 0.96 µM (fucose-binding lectin LecB (Pseudomonas aeruginosa, UniProt A0A0H2ZE85)).
`COc1ccc(-c2cc(=O)c3c(OC)c(OC)c(OC)c(OC)c3o2)cc1` has an IC50 of 34 to 40 µM and 20 to 50 µM (Solute carrier organic anion transporter family member 2B1 (SLCO2B1, Homo sapiens, UniProt O94956); transporter uptake, inhibitor, radiometric; MDCK-II; 3 min, pH 6).
The IC50 of `CCc1oc2ccccc2c1C(=O)c1cc(C)c(O)c(C)c1` is reported as 7.5 µM and ~7.5 µM (Solute carrier family 22 member 12 (SLC22A12, Homo sapiens, UniProt Q96S37); human cells).
For `CN1CCN(CCC(=O)Nc2ccc3c(c2)Sc2cccc(-c4cc(=O)cc(N5CCOCC5)o4)c2S3)CC1`, the IC50 was 0.003 µM (Serine-protein kinase ATM (ATM, Homo sapiens, UniProt Q13315); enzyme activity, inhibitor).
`O=c1cc(-c2cccc3ccccc23)[nH][nH]1` has an IC50 of 7.87 ± 0.853 µM (Alkaline phosphatase, tissue-nonspecific isozyme (ALPL, Homo sapiens, UniProt P05186); enzyme activity, inhibitor, luminescence; with: 1 M DEA, 50 µM CDP-star).
With `Cc1ccc(Cn2cc(COc3cccc(C4C(C#N)=C(N)Oc5c4c(=O)[nH]c4ccccc54)c3)nn2)cc1` (centres unmarked) the IC50 was 14.52 ± 0.05 µM (MAL12; enzyme activity).
The IC50 of `O=c1c(O)c(-c2ccc(O)cc2)oc2c(Br)c(O)cc(O)c12` is reported as 173 ± 2.35 µM (α-glucosidase (Saccharomyces cerevisiae); inhibitor; with: pNPG).
`O=S(=O)(Nc1cccc(-c2nnn[nH]2)c1)c1cc(Cl)c(Cl)cc1Cl` gave an IC50 of 0.54 µM (Leucyl-cystinyl aminopeptidase (LNPEP, Homo sapiens, UniProt Q9UIQ6); enzyme activity, inhibitor, fluorescence).
For `Clc1cccc(C(c2ccc3[nH]cnc3c2)n2ccnc2)c1` (centres unmarked), the IC50 was ~40 µM and 37.7 µM (7-alpha-hydroxycholest-4-en-3-one 12-alpha-hydroxylase (Homo sapiens, UniProt Q9UNU6); enzyme activity, inhibitor; 2 min, with: 7α-hydroxycholest-4-en-3-one 0.5 µM (Km)).
With `NS(=O)(=O)Oc1ccc(C(c2ccc(Cl)cc2)n2cncn2)cc1Br` (racemic) the IC50 was 1.4 ± 0.234 µM (STS; enzyme activity, inhibitor; JEG-3; 1 h, with: [3H]oestrone sulfate).
